Measured values from different studies.
Each numbered part is a random draw from the data of one study; scales do not carry over between parts.
Chain of UniProt Q15349 (whole entry, looked up): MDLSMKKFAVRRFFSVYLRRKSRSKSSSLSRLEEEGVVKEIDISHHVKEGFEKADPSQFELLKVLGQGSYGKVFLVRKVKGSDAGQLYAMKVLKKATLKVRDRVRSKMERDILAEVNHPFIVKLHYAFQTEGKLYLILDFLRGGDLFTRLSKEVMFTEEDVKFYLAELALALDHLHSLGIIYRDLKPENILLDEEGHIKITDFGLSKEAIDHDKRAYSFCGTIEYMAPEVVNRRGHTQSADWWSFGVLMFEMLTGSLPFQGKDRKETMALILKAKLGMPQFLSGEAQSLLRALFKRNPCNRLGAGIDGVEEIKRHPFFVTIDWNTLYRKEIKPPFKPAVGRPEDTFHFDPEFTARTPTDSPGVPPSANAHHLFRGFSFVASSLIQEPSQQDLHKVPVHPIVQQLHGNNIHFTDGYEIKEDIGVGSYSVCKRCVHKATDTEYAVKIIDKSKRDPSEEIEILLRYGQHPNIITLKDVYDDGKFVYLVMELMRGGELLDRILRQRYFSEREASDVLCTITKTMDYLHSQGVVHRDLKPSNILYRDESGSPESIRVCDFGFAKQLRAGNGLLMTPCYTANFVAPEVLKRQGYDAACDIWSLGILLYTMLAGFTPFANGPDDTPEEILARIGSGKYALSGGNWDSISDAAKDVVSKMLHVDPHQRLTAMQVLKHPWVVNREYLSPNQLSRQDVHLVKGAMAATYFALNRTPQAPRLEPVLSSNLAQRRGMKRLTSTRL
Chain of UniProt P31751 (whole entry, looked up): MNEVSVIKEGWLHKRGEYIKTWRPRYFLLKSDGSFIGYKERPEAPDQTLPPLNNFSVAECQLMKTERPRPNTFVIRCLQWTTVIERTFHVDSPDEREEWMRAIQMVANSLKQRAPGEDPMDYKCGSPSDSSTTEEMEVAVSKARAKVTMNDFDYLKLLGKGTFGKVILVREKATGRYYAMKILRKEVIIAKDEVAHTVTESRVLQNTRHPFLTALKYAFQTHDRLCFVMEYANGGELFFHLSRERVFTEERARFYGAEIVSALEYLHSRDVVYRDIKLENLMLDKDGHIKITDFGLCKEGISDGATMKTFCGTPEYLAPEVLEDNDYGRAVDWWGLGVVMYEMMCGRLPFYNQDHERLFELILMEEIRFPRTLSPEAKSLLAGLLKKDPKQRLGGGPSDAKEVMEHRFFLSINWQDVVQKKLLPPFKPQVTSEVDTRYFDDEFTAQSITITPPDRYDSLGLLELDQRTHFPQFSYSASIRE
Chain of UniProt Q56UN5 (whole entry, looked up): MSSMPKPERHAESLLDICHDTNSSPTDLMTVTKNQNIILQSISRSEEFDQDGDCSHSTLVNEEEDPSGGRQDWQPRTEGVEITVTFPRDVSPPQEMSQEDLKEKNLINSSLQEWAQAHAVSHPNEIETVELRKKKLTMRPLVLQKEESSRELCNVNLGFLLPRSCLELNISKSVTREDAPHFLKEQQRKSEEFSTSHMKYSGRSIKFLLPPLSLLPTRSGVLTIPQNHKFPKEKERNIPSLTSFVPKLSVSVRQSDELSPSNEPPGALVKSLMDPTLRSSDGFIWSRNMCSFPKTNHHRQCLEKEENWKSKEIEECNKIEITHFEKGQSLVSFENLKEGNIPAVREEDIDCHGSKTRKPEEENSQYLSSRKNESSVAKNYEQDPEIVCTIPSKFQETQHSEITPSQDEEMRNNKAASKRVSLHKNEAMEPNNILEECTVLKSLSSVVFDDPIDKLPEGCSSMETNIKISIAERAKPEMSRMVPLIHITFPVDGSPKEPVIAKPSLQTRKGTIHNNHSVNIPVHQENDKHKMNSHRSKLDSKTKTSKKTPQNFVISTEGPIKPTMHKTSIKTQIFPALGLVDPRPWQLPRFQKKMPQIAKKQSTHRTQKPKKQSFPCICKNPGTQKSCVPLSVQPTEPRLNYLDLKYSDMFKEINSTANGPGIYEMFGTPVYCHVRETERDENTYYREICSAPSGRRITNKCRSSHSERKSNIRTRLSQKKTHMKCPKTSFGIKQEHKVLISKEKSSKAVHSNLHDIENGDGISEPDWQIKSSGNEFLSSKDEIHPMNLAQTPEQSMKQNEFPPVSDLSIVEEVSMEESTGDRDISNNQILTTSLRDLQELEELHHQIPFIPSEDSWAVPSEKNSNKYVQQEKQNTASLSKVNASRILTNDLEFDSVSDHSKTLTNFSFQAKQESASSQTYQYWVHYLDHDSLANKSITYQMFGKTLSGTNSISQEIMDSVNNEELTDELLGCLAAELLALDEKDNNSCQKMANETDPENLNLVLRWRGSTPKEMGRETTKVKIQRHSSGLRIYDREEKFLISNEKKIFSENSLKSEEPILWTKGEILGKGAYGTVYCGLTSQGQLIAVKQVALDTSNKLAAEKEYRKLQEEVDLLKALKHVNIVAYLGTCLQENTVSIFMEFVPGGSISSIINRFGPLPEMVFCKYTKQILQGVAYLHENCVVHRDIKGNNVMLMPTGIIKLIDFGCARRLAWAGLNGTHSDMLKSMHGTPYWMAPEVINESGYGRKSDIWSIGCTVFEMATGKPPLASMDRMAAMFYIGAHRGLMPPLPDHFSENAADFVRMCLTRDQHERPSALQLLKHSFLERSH
Chain of UniProt Q09013 (whole entry, looked up): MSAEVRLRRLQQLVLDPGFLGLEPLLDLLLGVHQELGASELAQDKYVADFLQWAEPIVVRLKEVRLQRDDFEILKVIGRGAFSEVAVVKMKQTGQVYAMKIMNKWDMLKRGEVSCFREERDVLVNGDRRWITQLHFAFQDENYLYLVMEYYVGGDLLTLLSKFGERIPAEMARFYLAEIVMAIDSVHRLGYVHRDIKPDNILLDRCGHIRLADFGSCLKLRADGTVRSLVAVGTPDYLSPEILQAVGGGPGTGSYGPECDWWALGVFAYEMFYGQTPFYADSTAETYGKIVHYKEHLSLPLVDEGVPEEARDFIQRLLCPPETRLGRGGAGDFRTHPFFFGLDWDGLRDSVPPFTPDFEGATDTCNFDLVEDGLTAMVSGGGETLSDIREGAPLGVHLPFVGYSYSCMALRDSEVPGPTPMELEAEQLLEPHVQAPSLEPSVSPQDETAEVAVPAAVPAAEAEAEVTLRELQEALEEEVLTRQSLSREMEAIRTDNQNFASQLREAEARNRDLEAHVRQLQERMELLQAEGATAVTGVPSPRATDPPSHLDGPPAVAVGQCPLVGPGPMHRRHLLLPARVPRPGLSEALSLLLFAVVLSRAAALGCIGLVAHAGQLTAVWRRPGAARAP
Chain of UniProt O00238 (whole entry, looked up): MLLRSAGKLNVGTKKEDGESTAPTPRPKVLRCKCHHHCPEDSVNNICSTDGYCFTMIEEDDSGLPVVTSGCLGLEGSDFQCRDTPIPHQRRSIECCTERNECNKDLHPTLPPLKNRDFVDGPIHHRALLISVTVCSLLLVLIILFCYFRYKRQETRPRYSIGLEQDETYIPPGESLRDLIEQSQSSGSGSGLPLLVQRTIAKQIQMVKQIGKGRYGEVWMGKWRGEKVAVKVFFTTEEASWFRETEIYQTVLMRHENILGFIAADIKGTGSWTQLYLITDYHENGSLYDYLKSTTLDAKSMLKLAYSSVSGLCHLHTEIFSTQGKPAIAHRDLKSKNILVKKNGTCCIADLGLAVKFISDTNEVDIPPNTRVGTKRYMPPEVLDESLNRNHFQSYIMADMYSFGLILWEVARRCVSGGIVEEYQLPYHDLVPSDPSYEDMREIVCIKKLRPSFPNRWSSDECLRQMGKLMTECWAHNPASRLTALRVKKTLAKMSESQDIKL

Sample 1
Target: Histone acetyltransferase KAT6A, winged helix 2, GST fusion (KAT6A, Homo sapiens, UniProt Q92794, residues 85-181)
Method: protein binding microarray
Molecule type: double-stranded DNA, one strand shown
Sample: in vitro
Tested at: not given
Notes: 8-mer, flanks averaged, mean of 2 arrays, mostly near background
Reference: not given
Direction: higher = stronger binding
Target sequence (chain): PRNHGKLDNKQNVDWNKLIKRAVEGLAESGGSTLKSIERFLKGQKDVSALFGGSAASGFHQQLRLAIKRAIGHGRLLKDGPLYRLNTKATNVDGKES
`GAGTATGC` has an E-score of -0.015.
`GAGCGTAC` has an E-score of 0.0363.
`ACCAACAT` gave an E-score of -0.0133.
`GAACGCAC` gave an E-score of 0.154.
For `CCATGACA`, the E-score was 0.0243.
`GATGTCAC` has an E-score of -0.0198.
The E-score of `TATGGACA` is reported as -0.0673.
With `ATCGAGTG` the E-score was 0.0948.

Sample 2
Target: Protein-tyrosine kinase 2-beta (PTK2B, Homo sapiens, UniProt Q14289)
Chain of UniProt Q14289 (whole entry, looked up): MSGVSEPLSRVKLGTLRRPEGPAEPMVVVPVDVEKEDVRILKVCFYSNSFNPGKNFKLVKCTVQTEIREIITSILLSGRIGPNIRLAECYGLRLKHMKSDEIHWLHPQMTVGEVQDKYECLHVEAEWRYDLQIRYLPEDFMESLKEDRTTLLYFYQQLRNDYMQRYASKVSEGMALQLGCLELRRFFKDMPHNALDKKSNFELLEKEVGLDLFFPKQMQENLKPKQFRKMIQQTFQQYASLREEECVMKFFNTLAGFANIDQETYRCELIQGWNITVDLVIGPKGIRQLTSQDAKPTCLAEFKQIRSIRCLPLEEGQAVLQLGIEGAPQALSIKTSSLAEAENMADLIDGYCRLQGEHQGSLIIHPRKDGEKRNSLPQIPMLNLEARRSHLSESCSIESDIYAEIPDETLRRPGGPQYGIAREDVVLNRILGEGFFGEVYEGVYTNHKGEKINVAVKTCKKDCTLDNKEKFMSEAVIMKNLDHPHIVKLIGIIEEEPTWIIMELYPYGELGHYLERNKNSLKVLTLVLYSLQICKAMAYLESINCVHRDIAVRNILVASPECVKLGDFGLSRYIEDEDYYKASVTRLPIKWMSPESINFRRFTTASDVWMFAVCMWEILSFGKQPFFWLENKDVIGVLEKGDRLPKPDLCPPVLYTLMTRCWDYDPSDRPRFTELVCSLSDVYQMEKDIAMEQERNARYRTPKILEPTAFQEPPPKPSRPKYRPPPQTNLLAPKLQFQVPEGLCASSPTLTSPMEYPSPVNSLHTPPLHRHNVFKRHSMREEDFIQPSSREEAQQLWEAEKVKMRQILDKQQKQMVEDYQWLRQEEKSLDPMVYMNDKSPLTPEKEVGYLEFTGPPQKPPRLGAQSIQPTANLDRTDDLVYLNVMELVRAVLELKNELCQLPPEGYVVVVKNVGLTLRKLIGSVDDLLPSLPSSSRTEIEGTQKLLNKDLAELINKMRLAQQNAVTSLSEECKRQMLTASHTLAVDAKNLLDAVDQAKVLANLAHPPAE
Effect on: enzyme activity
Action: inhibitor
Tested at: 0.5 µM
Reference: control
The remaining activity of `O=C1NC(=O)c2c1c1c3ccccc3[nH]c1c1[nH]c3cc(Br)ccc3c21` is reported as 79.5%.
`CC(C)N(CCC(=O)c1ccc2ccccc2c1)Cc1ccccc1` gave a remaining activity of 106%.
`NC(=O)c1cccc(-c2cc(Nc3ccc(OC(F)(F)F)cc3)ncn2)c1` has a remaining activity of 94.6%.
For `N#Cc1cnc2cnc(NCc3cccnc3)cc2c1Nc1ccc(F)c(Cl)c1`, the remaining activity was 100%.
The remaining activity of `O=Nc1c(-c2c(O)[nH]c3ccccc23)[nH]c2ccccc12` is reported as 65.8%.
With `Cc1ccc(S(=O)(=O)/C=C/C#N)cc1` the remaining activity was 92.8%.
`O=C(O)/C=C/c1cc(Br)c(Br)c(Br)c1Br` gave a remaining activity of 93.3%.
The remaining activity of `O=C1c2ccccc2-c2nc3nnnn3nc21` is reported as 52.1%.
The remaining activity of `O=c1c(-c2ccc(F)cc2)c(-c2ccncc2)[nH]n1-c1ccc(Cl)cc1` is reported as 91.7%.
For `O=C(c1cc2cc(O)ccc2[nH]1)c1cc2cc(O)ccc2[nH]1`, the remaining activity was 85.5%.
With `Cc1cc(Nc2cc(N3CCN(C)CC3)nc(Sc3ccc(NC(=O)C4CC4)cc3)n2)[nH]n1` the remaining activity was 95.5%.
For `CCCCc1c(-c2ccc(O)cc2)[nH]c2nccnc12`, the remaining activity was 99%.
The remaining activity of `CCCCc1c(-c2ccc(OC)cc2)[nH]c2nccnc12` is reported as 100%.
`O=C1Cc2c([nH]c3ccc(Br)cc23)-c2ccccc2N1` has a remaining activity of 102%.
The remaining activity of `O=Nc1c(-c2c(O)[nH]c3cc(Br)ccc23)[nH]c2ccccc12` is reported as 56.7%.

Sample 3
SMILES: Cc1c(NC(=O)c2cc(C(N)=O)nc3cc(F)ccc23)c(C(F)(F)F)nn1Cc1ccc(C(C)(C)C)cc1
Effect on: cell-free assay
Method: competition with immobilised ligand
Tested at: 1 µM
The remaining binding was 100% (Mitogen-activated protein kinase kinase kinase 4 (MAP3K4, Homo sapiens, UniProt Q9Y6R4)).
It gave 100% for remaining binding (Myotonin-protein kinase (DMPK, Homo sapiens, UniProt Q09013)).
The remaining binding was 100% (Serine/threonine-protein kinase SIK2 (SIK2, Homo sapiens, UniProt Q9H0K1)).
It gave 88% for remaining binding (Hepatocyte growth factor receptor (MET, Homo sapiens, UniProt P08581, M1250T)).
The remaining binding was 95% (Receptor-type tyrosine-protein kinase FLT3 (FLT3, Homo sapiens, UniProt P36888, D835V/ITD)).
It gave 82% for remaining binding (Bone morphogenetic protein receptor type-1B (BMPR1B, Homo sapiens, UniProt O00238)).
For RAC-beta serine/threonine-protein kinase (AKT2, Homo sapiens, UniProt P31751): remaining binding read 98%.
The remaining binding was 100% (Ribosomal protein S6 kinase alpha-2, N-terminal kinase domain (RPS6KA2, Homo sapiens, UniProt Q15349)).
Epidermal growth factor receptor (EGFR, Homo sapiens, UniProt P00533, del746-750) — remaining binding: 100%.
For Mitogen-activated protein kinase kinase kinase 19 (MAP3K19, Homo sapiens, UniProt Q56UN5): remaining binding read 85%.

Sample 4
Target: Hepatocyte nuclear factor 3-alpha (Foxa1, Mus musculus, UniProt P35582, residues 1-468, full length assumed)
Method: EMSA with sequencing
Molecule type: double-stranded DNA, one strand shown
Sample: in vitro
Tested at: 10 and 20 nM
Notes: whole designed probe, mean of two concentrations, ends assumed
Reference: negative control set to 0
Direction: higher = stronger binding
Residues (chain): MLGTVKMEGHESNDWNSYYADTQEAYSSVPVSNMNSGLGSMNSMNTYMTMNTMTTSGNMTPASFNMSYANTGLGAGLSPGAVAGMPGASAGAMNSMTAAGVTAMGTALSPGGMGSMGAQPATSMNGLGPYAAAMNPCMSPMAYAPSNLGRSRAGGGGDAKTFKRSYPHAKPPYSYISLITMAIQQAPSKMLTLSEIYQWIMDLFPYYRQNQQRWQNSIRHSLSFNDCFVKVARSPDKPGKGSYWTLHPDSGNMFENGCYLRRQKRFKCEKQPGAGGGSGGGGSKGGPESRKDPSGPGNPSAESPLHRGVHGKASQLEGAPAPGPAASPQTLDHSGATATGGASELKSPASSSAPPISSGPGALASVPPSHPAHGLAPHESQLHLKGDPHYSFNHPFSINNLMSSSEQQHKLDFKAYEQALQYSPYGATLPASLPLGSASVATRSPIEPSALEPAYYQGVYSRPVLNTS
For `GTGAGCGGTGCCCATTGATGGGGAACACTCTCTCACGCTCACATGCACCTTCAGTTTTTCCCTTGCTGTCCCCCCATATGGGAGGAAGAGAAGATGTCTCCAGAAGTGTGAGCAGAGTAAGTAAACATGGAGAGTTTGTGATGCTTTGGTGACAATTACCTCTCCTTTCTGCTTCTGGCTGCTGTGGTTCCAGATGGTGGAAACGTTCCGTCCGATTCTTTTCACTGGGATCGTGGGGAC`, “normalised bound fraction” read 0.291 ratio.
For `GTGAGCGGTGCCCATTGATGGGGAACGGTTAAAAAAACATACAAGGATCCAATCCCCCCGTTGGAGACACACAGAGCAACAGTAGGAAGGATACATTTCCAGCAAGCTGTGACTCTTTAAGTAAATACGTAGGAGGAAGCAAGTGCAGATTAAAGTACAGTAACTGTGAGGCATATGACTGCAGTCATGTTTATGAGTGACTTATAAAGAGAGATTTCATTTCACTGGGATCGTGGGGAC`, “normalised bound fraction” read 0.335 ratio.
`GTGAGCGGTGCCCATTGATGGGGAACTGCAAAGGGCAAGATAGTTTCTCTGCTGTTAGCTTCAAAGGTTGTAGGTAATAAATTAAAAACTATAAGCAAATTTAAAGAATTAAAAGAAAAGCAAATAACTCTTGAGACTGATTTAGGTAGGTAATTTATCACTTCTTTATATCTCTCCCAGGAGATTAACTAGAGAAACTGTGGATATTGTATCAATGAGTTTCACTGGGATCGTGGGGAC`: “normalised bound fraction” 0.332 ratio.
For `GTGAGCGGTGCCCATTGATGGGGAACCAAGTTTGTGGTCCAGGAGCAACAGGTTATGCCATACAGCCTAGGTGTGTAGTAGGCTACACACCGTCTATGTTTGTGTTGTACACTCTACAATGTTTGCACAATGATGAAATCTTCCATGACTCATCTCAGAACATACCCCTGTTGTTAAGCGATACATGACTGTACTTTTTTTAAAAAGTCCAAGGATATATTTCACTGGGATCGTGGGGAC`, “normalised bound fraction” read 0.453 ratio.
`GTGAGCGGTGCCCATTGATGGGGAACAAAAAGTGAAAGAAAAAGAAAAAAAGGAAGAACCCTGTTATAGATTAGAAAGAGCACTGGACTTGGGGTCAGGATGTTTGTGTAAATGTCTCTGTTGACCTTTGGTGAGTCAGCCTTTCGTAAACTCCAGCCACAGCATGACTGCATCACCGGTTCCTTTGAAGCCCCTATGCTCCATCAACCTGCTGGAACATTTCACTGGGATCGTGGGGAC` — result for “normalised bound fraction”: 0.0881 ratio.
`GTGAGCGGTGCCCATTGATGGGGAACCAGTGCAGGTGACTAAGGATGACTAAGGACAGAGCAGGTGACTAAGGATGACTAAGGACTCTAAATATGTGAGTATAAAGGCTAGAAGGGGGTTGTTTACTGAAACTAGGGCAAGGAGGTGTAAAGAATGAGGAAGTTAAACTTTAAAATGGAGAACAAAGTATAAGAAAGCTGAACATACTGACATACTGGTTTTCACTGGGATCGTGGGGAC` — result for “normalised bound fraction”: 0.0441 ratio.
`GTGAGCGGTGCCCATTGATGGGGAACTCAGAGCTGTCAGCCTACTTGGCAGGCGACCTGACACTTTAGCTGAGTCACATTTAAAAACAATTTCCTAAGAAGGGTGAGGTCACCATGAGAGCAATCTCCACCAGGCCACAGCTTAATTACTAAGTTGCCAACCTTTAGCTTTCCCCAGAGCCCCCTTATAAAACATTCAGATATCTACTGCCCAACAGTGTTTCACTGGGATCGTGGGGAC` — result for “normalised bound fraction”: -0.0705 ratio.
Under “normalised bound fraction”, `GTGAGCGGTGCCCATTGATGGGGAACACTGGGTGGACTCCGAGTGCCGCTGCCCAGTGTCTGCCTCCCTTCCTTTCGCTGGGGATGGAGAGCAGTGCGATGCTGGCCCCCGGGATCCCTGTTTACACAGCGTGATGGCCAACGCCACCCTTCCCAGAGAGACTTACATCATGGGGCCTGAGCTGTGACCCTTTTAGAATTATCCACACTTTTTTTTTTTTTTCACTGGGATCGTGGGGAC` is recorded as 0.367 ratio.

Excerpt of the above (sample 4):
For `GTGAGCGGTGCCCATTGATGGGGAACGGTTAAAAAAACATACAAGGATCCAATCCCCCCGTTGGAGACACACAGAGCAACAGTAGGAAGGATACATTTCCAGCAAGCTGTGACTCTTTAAGTAAATACGTAGGAGGAAGCAAGTGCAGATTAAAGTACAGTAACTGTGAGGCATATGACTGCAGTCATGTTTATGAGTGACTTATAAAGAGAGATTTCATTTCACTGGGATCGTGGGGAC`, “normalised bound fraction” read 0.335 ratio.
`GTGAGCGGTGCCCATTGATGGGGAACTGCAAAGGGCAAGATAGTTTCTCTGCTGTTAGCTTCAAAGGTTGTAGGTAATAAATTAAAAACTATAAGCAAATTTAAAGAATTAAAAGAAAAGCAAATAACTCTTGAGACTGATTTAGGTAGGTAATTTATCACTTCTTTATATCTCTCCCAGGAGATTAACTAGAGAAACTGTGGATATTGTATCAATGAGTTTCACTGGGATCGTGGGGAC`: “normalised bound fraction” 0.332 ratio.
`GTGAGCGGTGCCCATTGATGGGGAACCAGTGCAGGTGACTAAGGATGACTAAGGACAGAGCAGGTGACTAAGGATGACTAAGGACTCTAAATATGTGAGTATAAAGGCTAGAAGGGGGTTGTTTACTGAAACTAGGGCAAGGAGGTGTAAAGAATGAGGAAGTTAAACTTTAAAATGGAGAACAAAGTATAAGAAAGCTGAACATACTGACATACTGGTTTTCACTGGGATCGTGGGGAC` — result for “normalised bound fraction”: 0.0441 ratio.
For `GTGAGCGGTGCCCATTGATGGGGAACACTCTCTCACGCTCACATGCACCTTCAGTTTTTCCCTTGCTGTCCCCCCATATGGGAGGAAGAGAAGATGTCTCCAGAAGTGTGAGCAGAGTAAGTAAACATGGAGAGTTTGTGATGCTTTGGTGACAATTACCTCTCCTTTCTGCTTCTGGCTGCTGTGGTTCCAGATGGTGGAAACGTTCCGTCCGATTCTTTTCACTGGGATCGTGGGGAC`, “normalised bound fraction” read 0.291 ratio.
Under “normalised bound fraction”, `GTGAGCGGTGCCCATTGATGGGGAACACTGGGTGGACTCCGAGTGCCGCTGCCCAGTGTCTGCCTCCCTTCCTTTCGCTGGGGATGGAGAGCAGTGCGATGCTGGCCCCCGGGATCCCTGTTTACACAGCGTGATGGCCAACGCCACCCTTCCCAGAGAGACTTACATCATGGGGCCTGAGCTGTGACCCTTTTAGAATTATCCACACTTTTTTTTTTTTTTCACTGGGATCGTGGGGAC` is recorded as 0.367 ratio.
